Results from different studies.
Numbers after ± are the reported error.
PHO4: PHO4 1-312 (Saccharomyces cerevisiae, UniProt P07270)
Sequence of UniProt P07270 (whole entry, looked up): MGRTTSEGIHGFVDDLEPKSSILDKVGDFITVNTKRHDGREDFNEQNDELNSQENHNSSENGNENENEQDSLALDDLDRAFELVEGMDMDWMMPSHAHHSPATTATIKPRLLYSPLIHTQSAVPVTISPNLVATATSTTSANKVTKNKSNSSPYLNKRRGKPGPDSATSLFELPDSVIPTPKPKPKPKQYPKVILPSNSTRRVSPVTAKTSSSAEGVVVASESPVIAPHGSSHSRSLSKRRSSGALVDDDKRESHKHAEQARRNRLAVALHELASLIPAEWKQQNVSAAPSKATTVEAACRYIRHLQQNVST
ulaR full length assumed: ulaR full length assumed (Escherichia coli, UniProt P0A9W0)
Sequence of UniProt P0A9W0 (whole entry, looked up): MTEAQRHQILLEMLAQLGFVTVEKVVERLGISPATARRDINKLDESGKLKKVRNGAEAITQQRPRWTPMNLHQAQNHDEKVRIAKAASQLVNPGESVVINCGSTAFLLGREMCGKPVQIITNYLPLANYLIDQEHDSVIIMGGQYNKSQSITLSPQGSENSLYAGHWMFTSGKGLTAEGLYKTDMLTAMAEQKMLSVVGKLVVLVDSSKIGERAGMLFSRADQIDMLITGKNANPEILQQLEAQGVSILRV
CBF1 full length assumed: CBF1 full length assumed (Saccharomyces cerevisiae, UniProt P17106)
Sequence of UniProt P17106 (whole entry, looked up): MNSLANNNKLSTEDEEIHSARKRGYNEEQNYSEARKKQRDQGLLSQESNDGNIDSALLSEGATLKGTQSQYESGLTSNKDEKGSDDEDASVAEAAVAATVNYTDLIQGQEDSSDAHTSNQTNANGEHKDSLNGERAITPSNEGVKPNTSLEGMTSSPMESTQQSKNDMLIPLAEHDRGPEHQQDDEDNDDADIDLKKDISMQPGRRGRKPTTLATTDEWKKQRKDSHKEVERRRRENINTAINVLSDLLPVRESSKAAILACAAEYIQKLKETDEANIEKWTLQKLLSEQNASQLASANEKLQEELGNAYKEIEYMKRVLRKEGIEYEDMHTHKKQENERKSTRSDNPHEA
CBF1: CBF1 1-351 (Saccharomyces cerevisiae, UniProt P17106)
pdhR full length assumed: pdhR full length assumed (Escherichia coli, UniProt P0ACL9)
Sequence of UniProt P0ACL9 (whole entry, looked up): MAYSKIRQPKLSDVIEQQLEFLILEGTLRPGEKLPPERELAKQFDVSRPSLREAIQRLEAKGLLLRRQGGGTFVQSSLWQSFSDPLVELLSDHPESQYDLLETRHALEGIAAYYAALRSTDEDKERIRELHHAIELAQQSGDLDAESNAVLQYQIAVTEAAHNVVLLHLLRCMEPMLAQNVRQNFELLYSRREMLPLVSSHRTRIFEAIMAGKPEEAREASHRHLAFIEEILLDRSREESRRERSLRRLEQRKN
MECP2: MECP2 1-486 (Homo sapiens, UniProt P51608)
U2AF2: U2AF2 148-342 (Homo sapiens, UniProt P26368)
Sequence of UniProt P26368 (whole entry, looked up): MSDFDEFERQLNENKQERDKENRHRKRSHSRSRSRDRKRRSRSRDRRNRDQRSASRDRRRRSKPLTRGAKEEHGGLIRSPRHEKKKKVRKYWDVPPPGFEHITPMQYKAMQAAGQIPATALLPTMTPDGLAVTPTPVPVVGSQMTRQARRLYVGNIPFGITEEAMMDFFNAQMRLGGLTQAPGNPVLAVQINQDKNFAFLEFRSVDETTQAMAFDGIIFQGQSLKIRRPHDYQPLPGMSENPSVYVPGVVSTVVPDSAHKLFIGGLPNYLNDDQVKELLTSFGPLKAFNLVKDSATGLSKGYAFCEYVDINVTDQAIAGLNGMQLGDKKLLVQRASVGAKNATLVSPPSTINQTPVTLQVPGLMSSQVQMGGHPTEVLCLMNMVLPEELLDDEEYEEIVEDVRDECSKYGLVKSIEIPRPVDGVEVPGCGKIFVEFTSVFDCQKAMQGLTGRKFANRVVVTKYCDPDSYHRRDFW
SPT15 full length assumed: SPT15 full length assumed (Saccharomyces cerevisiae, UniProt P13393)
Sequence of UniProt P13393 (whole entry, looked up): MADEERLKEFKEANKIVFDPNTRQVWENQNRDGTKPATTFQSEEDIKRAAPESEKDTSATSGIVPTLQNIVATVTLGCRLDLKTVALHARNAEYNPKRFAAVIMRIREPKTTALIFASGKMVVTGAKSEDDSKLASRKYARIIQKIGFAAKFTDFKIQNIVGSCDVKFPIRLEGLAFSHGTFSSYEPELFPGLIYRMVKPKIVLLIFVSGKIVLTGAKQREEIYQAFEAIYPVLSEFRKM
T1: MUTYH 1-535 (Homo sapiens); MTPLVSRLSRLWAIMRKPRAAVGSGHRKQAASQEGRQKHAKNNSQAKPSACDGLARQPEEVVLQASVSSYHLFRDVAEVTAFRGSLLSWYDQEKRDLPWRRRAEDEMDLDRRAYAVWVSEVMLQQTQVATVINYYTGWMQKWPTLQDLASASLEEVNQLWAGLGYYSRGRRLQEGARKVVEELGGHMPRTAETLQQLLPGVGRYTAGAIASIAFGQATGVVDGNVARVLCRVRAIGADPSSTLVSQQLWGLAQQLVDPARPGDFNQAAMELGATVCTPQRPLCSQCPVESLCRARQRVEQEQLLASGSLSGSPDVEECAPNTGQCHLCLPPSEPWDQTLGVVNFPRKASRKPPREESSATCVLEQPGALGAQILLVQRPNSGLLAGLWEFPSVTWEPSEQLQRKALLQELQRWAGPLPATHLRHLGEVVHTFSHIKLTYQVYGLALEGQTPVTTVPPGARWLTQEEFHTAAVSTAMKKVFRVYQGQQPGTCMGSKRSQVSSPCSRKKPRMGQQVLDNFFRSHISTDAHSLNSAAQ
T2: TOA1/TOA2 1-286; 1-122 (Saccharomyces cerevisiae); chain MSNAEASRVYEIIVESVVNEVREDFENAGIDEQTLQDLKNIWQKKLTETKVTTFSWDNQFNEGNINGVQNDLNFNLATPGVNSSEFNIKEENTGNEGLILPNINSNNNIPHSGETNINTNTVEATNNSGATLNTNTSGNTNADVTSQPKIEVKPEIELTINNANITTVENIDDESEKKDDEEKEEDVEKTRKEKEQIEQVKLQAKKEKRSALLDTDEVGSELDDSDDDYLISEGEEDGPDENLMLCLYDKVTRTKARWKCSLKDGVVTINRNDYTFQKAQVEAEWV; chain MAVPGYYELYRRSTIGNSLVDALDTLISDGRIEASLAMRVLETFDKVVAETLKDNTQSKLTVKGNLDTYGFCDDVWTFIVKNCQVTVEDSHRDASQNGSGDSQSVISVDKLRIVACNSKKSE
Sequence of UniProt Q13569 (whole entry, looked up): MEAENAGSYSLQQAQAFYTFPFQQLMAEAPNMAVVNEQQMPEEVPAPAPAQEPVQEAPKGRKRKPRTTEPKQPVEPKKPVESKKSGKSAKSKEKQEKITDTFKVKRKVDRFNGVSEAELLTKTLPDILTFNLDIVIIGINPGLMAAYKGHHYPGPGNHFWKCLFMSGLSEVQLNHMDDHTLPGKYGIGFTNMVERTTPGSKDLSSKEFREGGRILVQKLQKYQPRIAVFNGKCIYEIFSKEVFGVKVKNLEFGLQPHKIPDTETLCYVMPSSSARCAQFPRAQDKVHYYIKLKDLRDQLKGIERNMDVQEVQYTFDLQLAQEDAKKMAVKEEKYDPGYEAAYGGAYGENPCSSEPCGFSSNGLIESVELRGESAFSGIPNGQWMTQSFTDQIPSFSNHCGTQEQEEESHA
Sequence of UniProt P14565 (whole entry, looked up): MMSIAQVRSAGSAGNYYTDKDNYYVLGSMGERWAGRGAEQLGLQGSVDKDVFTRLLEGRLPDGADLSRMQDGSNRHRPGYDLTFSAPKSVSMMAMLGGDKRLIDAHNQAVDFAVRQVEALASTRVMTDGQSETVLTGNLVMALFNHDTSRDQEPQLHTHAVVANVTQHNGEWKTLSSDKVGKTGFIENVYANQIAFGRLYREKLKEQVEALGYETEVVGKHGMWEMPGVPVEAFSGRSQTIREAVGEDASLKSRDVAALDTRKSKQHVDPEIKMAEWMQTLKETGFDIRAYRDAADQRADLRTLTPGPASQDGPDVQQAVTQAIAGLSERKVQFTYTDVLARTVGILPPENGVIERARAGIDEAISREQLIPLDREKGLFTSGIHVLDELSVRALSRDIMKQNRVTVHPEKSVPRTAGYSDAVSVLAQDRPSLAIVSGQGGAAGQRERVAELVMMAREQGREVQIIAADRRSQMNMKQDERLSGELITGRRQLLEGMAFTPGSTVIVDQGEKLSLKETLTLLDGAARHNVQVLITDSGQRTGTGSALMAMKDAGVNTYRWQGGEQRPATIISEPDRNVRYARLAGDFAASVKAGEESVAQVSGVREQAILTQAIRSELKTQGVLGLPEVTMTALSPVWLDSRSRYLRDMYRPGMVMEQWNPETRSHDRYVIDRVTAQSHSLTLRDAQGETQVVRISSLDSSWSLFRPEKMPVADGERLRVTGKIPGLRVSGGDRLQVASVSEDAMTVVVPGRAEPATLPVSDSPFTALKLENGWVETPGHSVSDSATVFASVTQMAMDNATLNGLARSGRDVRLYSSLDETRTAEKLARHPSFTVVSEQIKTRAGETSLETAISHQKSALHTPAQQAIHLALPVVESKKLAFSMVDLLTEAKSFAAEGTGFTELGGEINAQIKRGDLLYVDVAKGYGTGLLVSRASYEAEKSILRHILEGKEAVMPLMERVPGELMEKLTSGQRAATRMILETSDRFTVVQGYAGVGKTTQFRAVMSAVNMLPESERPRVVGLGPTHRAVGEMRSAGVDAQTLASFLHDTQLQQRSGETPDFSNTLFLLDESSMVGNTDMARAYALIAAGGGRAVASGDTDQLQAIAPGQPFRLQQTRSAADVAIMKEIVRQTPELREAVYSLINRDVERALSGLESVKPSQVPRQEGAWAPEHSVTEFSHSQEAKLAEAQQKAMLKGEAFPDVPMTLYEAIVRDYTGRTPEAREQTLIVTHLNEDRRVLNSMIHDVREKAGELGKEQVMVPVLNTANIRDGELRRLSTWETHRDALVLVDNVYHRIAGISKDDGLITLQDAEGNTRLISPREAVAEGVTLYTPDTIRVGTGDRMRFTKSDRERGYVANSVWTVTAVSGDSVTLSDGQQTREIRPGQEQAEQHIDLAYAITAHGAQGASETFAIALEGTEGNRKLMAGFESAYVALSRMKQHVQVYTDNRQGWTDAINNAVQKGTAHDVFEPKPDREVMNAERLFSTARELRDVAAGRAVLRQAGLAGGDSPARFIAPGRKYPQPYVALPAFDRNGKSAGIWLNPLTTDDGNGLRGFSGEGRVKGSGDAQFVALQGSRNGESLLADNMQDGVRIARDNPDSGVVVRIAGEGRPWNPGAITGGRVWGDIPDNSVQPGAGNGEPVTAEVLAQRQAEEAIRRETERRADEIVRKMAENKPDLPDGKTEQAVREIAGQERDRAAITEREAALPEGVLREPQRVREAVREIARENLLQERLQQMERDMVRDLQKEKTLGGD
Sequence of UniProt Q47005 (whole entry, looked up): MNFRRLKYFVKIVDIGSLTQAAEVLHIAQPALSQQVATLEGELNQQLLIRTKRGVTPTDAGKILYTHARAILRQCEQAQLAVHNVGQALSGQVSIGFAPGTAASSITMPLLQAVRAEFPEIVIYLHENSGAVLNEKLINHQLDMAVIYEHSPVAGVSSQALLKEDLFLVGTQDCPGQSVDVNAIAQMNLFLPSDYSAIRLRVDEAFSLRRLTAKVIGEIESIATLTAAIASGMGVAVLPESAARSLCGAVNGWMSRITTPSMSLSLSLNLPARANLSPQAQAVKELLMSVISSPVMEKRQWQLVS
Sequence of UniProt Q07955 (whole entry, looked up): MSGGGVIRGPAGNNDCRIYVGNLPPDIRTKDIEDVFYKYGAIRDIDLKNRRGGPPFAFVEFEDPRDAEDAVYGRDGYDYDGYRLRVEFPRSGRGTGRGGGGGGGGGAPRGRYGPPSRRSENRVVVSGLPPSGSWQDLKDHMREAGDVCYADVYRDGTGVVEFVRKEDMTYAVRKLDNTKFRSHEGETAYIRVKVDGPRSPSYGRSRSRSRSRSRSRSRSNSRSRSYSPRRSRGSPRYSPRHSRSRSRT
Sequence of UniProt P29055 (whole entry, looked up): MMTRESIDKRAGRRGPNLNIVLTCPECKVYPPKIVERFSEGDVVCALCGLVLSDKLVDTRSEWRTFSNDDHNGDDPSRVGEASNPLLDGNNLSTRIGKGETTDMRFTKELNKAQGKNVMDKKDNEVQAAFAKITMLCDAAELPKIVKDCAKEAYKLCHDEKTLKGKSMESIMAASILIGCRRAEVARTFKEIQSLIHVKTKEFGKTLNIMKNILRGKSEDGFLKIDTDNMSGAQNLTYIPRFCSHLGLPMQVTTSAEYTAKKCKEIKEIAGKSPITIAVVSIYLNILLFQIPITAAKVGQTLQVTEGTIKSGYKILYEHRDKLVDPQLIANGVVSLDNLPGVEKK

Sequence | target | assay | system | conditions | Kd [nM]
CAATACACTGTTATCAGACACACGTGTGGAGCTACTCGTTCGGTTATCCGGCGGTATGAC (dsDNA) | PHO4 | MITOMI | double-stranded DNA, one strand shown | not purified | 166 ± 4
GGTAACTTAGCGTCTCGTTGTGCTTAGGTATGACGAGGAATGGAATGCGATGCGCATAACG (dsDNA) | ulaR full length assumed | BLI | double-stranded DNA, one strand shown | – | 165
CAATACACTGTTATCAGACACACGTGTCAAGCTACTCGTTCGGTTATCCGGCGGTATGAC (dsDNA) | PHO4 | MITOMI | double-stranded DNA, one strand shown | not purified | 117 ± 3
CGCTAAAGTGGCAAAGTGGGAAAGTGGTAAAGTGTCAAAGTGTGAAAGTGTTAAACTCCGGCGGTATGAC (dsDNA) | CBF1 full length assumed | MITOMI | double-stranded DNA, one strand shown | not purified | 19000 ± 4000
ATGGCGGGCTATGATCCTAT (dsDNA) | SUB1 full length assumed (Homo sapiens, UniProt P53999) | fluorescence anisotropy | double-stranded DNA, one strand shown | – | 24 ± 17
ACAGGGGTGTGGGCACAGGGGTGTGGGC (G-quadruplex DNA (Homo sapiens); intramolecular G4) | IGF2 fragment (Homo sapiens) | SPR | folded DNA | together with: IGF-2 0.5-50 nM | 0.21
CGATCATGGAGCCACGAGCTCCCGTTACAG / CTGTAACGGGAGCTNGTGGCTCCATGATCG (dsDNA; blunt, 8-oxoG opposite THF abasic) | T1, MUTYH 1-535 (Homo sapiens) | EMSA | – | – | < 0.05
TCGTTCCCGCAGCTTGCCAGACGCGATTTCATAGTGGAGGCCTCCAGCAATCTTGAACAC (ssDNA) | ESCO1 1-200 (Homo sapiens, UniProt Q5FWF5) | EMSA | single-stranded DNA | apparent | 21
CAATACACTGTTATCAGACACACGTGCCGAGCTACTCGTTCGGTTATCCGGCGGTATGAC (dsDNA) | CBF1 | MITOMI | double-stranded DNA, one strand shown | not purified | 104 ± 5
CAACAAAACTTGATTAACATCAATTTTGGTATGACCAATGCACCATTCATGTTATTCTCAA (dsDNA) | pdhR full length assumed | BLI | double-stranded DNA, one strand shown | – | 3.5
RNA 1 CGGCAGGACGUACAUCCCUCCCGGCUCCCCUCCCGCUGGCCUGCCG / RNA 2 CGGCAGGCCAGCGGGAGGGGAGCCGGGAGGGAUGUACGUCCUGCCG (dsRNA) | MECP2 | fluorescence polarization | double-stranded RNA | Hill coefficient 0.78 | 11.4 ± 0.8
AGCGTCACAGACATGAAATTGGTAAGACCAATTGACTTCGGCAAGTGGCTTAAGACAGGAA (dsDNA) | pdhR full length assumed | BLI | double-stranded DNA, one strand shown | – | 3.73
TTTGCGTGGGCTGTGGTGCTTT (ssDNA) | traI 1-569 (Escherichia coli, UniProt P14565) | fluorescence titration | single-stranded DNA | – | 1300 ± 800
TGGATATCTAGGGGCGCTATGATATCT (dsDNA) | DNMT3A fragment (Homo sapiens) | fluorescence polarization | double-stranded DNA, one strand shown | – | 1000 ± 100
AGUUUUUCU (ssRNA) | U2AF2 | sequencing of bound RNA | RNA | motif only | 480
CGCCATGTAGACATGTATACATGTCCACATGTCGACATGTCTACATGTGCACATGCTCCGGCGGTATGAC (dsDNA) | PHO4 full length assumed (Saccharomyces cerevisiae, UniProt P07270) | MITOMI | double-stranded DNA, one strand shown | not purified | 110 ± 10
GCCTACCGGTTCGCGAACCGGTAGGC (dsDNA; blunt, self-complementary, 5'-phosphate) | PARP1 1-1014 (Homo sapiens, UniProt P09874) | fluorescence polarization | double-stranded DNA, one strand shown | – | 0.6
GGCAAGGAGUCUGCACUUCGGUGCUCAGCUUUGCC (RNA; hairpin, internal loop, tetraloop) | LARP6 73-183 G74C/R165A (Homo sapiens, UniProt Q9BRS8) | MST | folded RNA | – | 15.8 ± 1.32
GCGGATGAAGACTGGTGTCGGGGAGGGTGGGAGGGGGAGGTAGGTCGGGGTATGATCGGCCCTAAATACGAGCAAC (ssDNA; single-stranded) | Superoxide dismutase [Cu-Zn] 1-154 (Botrytis cinerea, UniProt A0A384JBV7) | ELONA | folded DNA | – | 1.09 ± 0.28
CTCAGGAATTCCGATAAAGTAATGTGGAGCTCAGTTCAAGTCAATCGGTCC (dsDNA; 5'-amino-C6 primer) | SPT15 full length assumed | array | double-stranded DNA, one strand shown | TBP alone | 6.82 ± 1.08
UUUUGAGGA (ssRNA) | SRSF1 1-248 (Homo sapiens, UniProt Q07955) | fluorescence polarization | RNA | – | 400 ± 20
AUUAUUUGU (ssRNA) | U2AF2 | sequencing of bound RNA | RNA | motif only | 2960

Sequence | target | assay | system | conditions | Kd [nM]
GAUACA (ssRNA) | SART3 697-786 (Homo sapiens, UniProt Q15020) | ITC | RNA | – | 4700 ± 1100
CATTCGCCGGCTATAAGTAAATCTTATGGAACTCATCATAAATGAGACTTTTACCTTATGA (dsDNA) | nac full length assumed (Escherichia coli, UniProt Q47005) | BLI | double-stranded DNA, one strand shown | – | 2.49
CAATACACTGTTATCAGAGACACGTGTCGAGCTACTCGTTCGGTTATCCGGCGGTATGAC (dsDNA) | CBF1 | MITOMI | double-stranded DNA, one strand shown | not purified | 104 ± 5
CGCTATTTACGTCACTACGTCAGCACGTCAGGACGTCAGTACGTCATCACGTCATCTCCGGCGGTATGAC (dsDNA) | CBF1 full length assumed | MITOMI | double-stranded DNA, one strand shown | not purified | 460 ± 20
AGCGTCACAGACATGAAAATGGTCAGACCACTTGACCTCGGCAAGTGGCTTAAGACAGGAA (dsDNA) | pdhR full length assumed | BLI | double-stranded DNA, one strand shown | – | 2.41
ACUUUUUUU (ssRNA) | U2AF2 | sequencing of bound RNA | RNA | motif only | 1140
CAATACACTGTTATCACACACACGTGTCGAGCTACTCGTTCGGTTATCCGGCGGTATGAC (dsDNA) | CBF1 | MITOMI | double-stranded DNA, one strand shown | not purified | 222 ± 17
CATTCGCAACCTATAAGTAAATCCAATGGAACTCATCATAAATGAGACTTTTACCTTATGA (dsDNA) | ulaR full length assumed | BLI | double-stranded DNA, one strand shown | – | 356
CTCAGGAATTCCTGTAAAGTAATGTGGAGCTCAGTTCAAGTCAATCGGTCC (dsDNA; 5'-amino-C6 primer) | SPT15 full length assumed | array | double-stranded DNA, one strand shown | TBP alone | 30.8 ± 3.16
GUUUCUCUU (ssRNA) | U2AF2 | sequencing of bound RNA | RNA | motif only | 12800
CGCGGGAATTAGGTAATTAGTCAATTAGTGAATTAGTTAATTATACAATTATAGACTCCGGCGGTATGAC (dsDNA) | CIN5 full length assumed (Saccharomyces cerevisiae, UniProt P40917) | MITOMI | double-stranded DNA, one strand shown | not purified | 900 ± 70
RNA 1 GCGGUGUAUAGCCUAAUCUUUACCGC / RNA 2 GCGGUAAAGAUUAGGCUAUACACCGC (dsRNA) | MECP2 | fluorescence polarization | double-stranded RNA | Hill coefficient 0.74 | 51.9 ± 9.7
CTCAGGAATTCCTATAAAGTAATGTGGAGCTCAGTTCAAGTCAATCGGTCC (dsDNA; blunt; 5'-amino-C6 primer) | SPT15 full length assumed | EMSA | double-stranded DNA, one strand shown | – | 5.5 ± 1.5
GUCUUCAUU (ssRNA) | U2AF2 | sequencing of bound RNA | RNA | motif only | 180
AAGAGGAGTTAAATTTTATACAGTATAATCATAATATTGCAGCAAGGTGGTTATAATTGAA (dsDNA) | ulaR full length assumed | BLI | double-stranded DNA, one strand shown | – | 57.5
DNA 1 TGAGGATGTATATATCTGAUGCGCCGGTGGAGC / DNA 2 GCTCCACCGGCGCGTACGATATATACATCCTCA (dsDNA; blunt, G-U mispair) | TDG 1-410 (Homo sapiens, UniProt Q13569) | EMSA | double-stranded DNA | – | 32
TATCACAGAAAAAAAGAAAATATAATAAATTAGTATCAAGTCAATCGGTCC (dsDNA; 5'-amino-C6 primer) | T2, TOA1/TOA2 1-286; 1-122 (Saccharomyces cerevisiae) | array | double-stranded DNA, one strand shown | TFIIA alone | 47.3 ± 14.7
UAUUUUGUU (ssRNA) | U2AF2 | sequencing of bound RNA | RNA | motif only | 4310
TGGATCAATCGTATAAAGAGAATTCCTGGTATGGATCAAGTCAATCGGTCC (dsDNA; 5'-amino-C6 primer) | SUA7 full length assumed (Saccharomyces cerevisiae, UniProt P29055) | array | double-stranded DNA, one strand shown | TFIIB alone | 3.48 ± 1.51
AAACUUUGU (ssRNA) | U2AF2 | sequencing of bound RNA | RNA | motif only | 4590
ACAACAGACACACGAAGGTATAAAAATAAAATACATCAAGTCAATCGGTCC (dsDNA; 5'-amino-C6 primer) | SPT15 full length assumed | array | double-stranded DNA, one strand shown | TBP alone | 5.09 ± 0.45
CAATACACTGTTATCAGTCACACGTGTCGAGCTACTCGTTCGGTTATCCGGCGGTATGAC (dsDNA) | CBF1 | MITOMI | double-stranded DNA, one strand shown | not purified | 217 ± 13

Excerpt of the above:
Sequence | target | assay | system | conditions | Kd [nM]
CAATACACTGTTATCAGACACACGTGTGGAGCTACTCGTTCGGTTATCCGGCGGTATGAC (dsDNA) | PHO4 | MITOMI | double-stranded DNA, one strand shown | not purified | 166 ± 4
GGTAACTTAGCGTCTCGTTGTGCTTAGGTATGACGAGGAATGGAATGCGATGCGCATAACG (dsDNA) | ulaR full length assumed | BLI | double-stranded DNA, one strand shown | – | 165
CAATACACTGTTATCAGACACACGTGTCAAGCTACTCGTTCGGTTATCCGGCGGTATGAC (dsDNA) | PHO4 | MITOMI | double-stranded DNA, one strand shown | not purified | 117 ± 3
CGCTAAAGTGGCAAAGTGGGAAAGTGGTAAAGTGTCAAAGTGTGAAAGTGTTAAACTCCGGCGGTATGAC (dsDNA) | CBF1 full length assumed | MITOMI | double-stranded DNA, one strand shown | not purified | 19000 ± 4000
